Published values collected from several papers.
Compare with care: the assays were run in different laboratories. Numbers after ± are the reported error.

Structure (SMILES) | species | medium | route | dose | setting | volume of distribution [L/kg]
CCS(=O)(=O)c1ccccc1C(=O)N1CCN(c2nc3ccc(F)cc3s2)C[C@@H]1C | mouse | – | oral | 3 mg/kg | – | 7.4 ± 1.1
NC(=O)c1c(F)ccc(OCc2nc3cc(Cl)cnc3s2)c1F | mouse | plasma | intravenous | 3 mg/kg | – | 1.06
Nc1c(S(=O)(=O)O)cc(Nc2cccc(S(N)(=O)=O)c2)c2c1C(=O)c1ccccc1C2=O | C57BL/6J mouse, male | – | intravenous | 5.0 mg/kg | – | 8 to 14
Oc1cc(F)ccc1Oc1ccccc1 | CD-1 mouse | plasma | subcutaneous | 100 mg/kg | – | 33 ± 13
CO[C@H]1/C=C/O[C@@]2(C)Oc3c(C)c(O)c4c(c3C2=O)C2=NC3(CCN(CC(C)C)CC3)NC2=C(NC(=O)/C(C)=C\C=C\[C@H](C)[C@H](O)[C@@H](C)[C@@H](O)[C@@H](C)[C@H](OC(=O)c2cccnc2)[C@@H]1C)C4=O | CD-1 mouse | – | – | 10 mg/kg | single dose | 1.6
CCCCCCc1ccc(Oc2ccccc2C#N)c(O)c1 | CD-1 mouse | plasma | subcutaneous | 100 mg/kg | – | 40 ± 12
CO[C@H]1/C=C/O[C@@]2(C)Oc3c(C)c(O)c4c(c3C2=O)C2=NC3(CCN(CC(C)C)CC3)NC2=C(NC(=O)/C(C)=C\C=C\[C@H](C)[C@H](O)[C@@H](C)[C@@H](O)[C@@H](C)[C@H](OC(=O)c2cccc(F)c2)[C@@H]1C)C4=O | CD-1 mouse | – | – | 10 mg/kg | single dose | 1.9
CC(C)C[C@H](NC(=O)[C@H](C)NC(=O)[C@H](C)NC(=O)[C@H](CCC(N)=O)NC(=O)[C@H](C)NC(=O)[C@H](CO)NC(=O)[C@H](CC(C)C)NC(=O)[C@H](C)NC(=O)[C@@H](NC(=O)[C@H](C)NC(=O)[C@H](Cc1ccc(O)cc1)NC(=O)[C@H](CO)NC(=O)[C@H](CCCCN)NC(=O)[C@H](C)NC(=O)[C@H](Cc1ccccc1)NC(=O)[C@H](CCCCN)NC(=O)[C@H](C)NC(=O)[C@H](Cc1ccccc1)NC(=O)[C@H](CCCCN)NC(=O)[C@H](CCCCN)NC(=O)[C@H](C)NC(=O)[C@H](Cc1ccccc1)NC(=O)[C@H](CCCCN)NC(=O)[C@H](C)NC(=O)[C@H](Cc1ccccc1)NC(=O)[C@H](CCCCN)NC(=O)[C@H](CCCCN)NC(=O)[C@H](C)NC(=O)[C@H](Cc1ccccc1)NC(=O)[C@H](CCCCN)NC(=O)[C@H](C)NC(=O)[C@H](Cc1ccccc1)NC(=O)[C@@H](N)CCCCN)C(C)C)C(=O)N[C@@H](C)C(=O)N[C@@H](CCCNC(=N)N)C(=O)N[C@@H](CCCNC(=N)N)C(=O)O | C57BL/6 mouse, male | – | intravenous | 0.8 mg/kg | – | 0.17 ± 0.03
CN1CCC(N[C@@H]2CCc3[nH]c4c(C(N)=O)ccc(-c5ccccc5Cl)c4c3C2)CC1 | BALB/c mouse | plasma | intravenous | 2 mg/kg | – | 120 ± 35.9

A few entries again:
Structure (SMILES) | species | medium | route | dose | setting | volume of distribution [L/kg]
Nc1c(S(=O)(=O)O)cc(Nc2cccc(S(N)(=O)=O)c2)c2c1C(=O)c1ccccc1C2=O | C57BL/6J mouse, male | – | intravenous | 5.0 mg/kg | – | 8 to 14
